Published values gathered from unrelated publications.
A part holds a random share of what one study measured.

Series 1
Target: RNA binding protein fox-1 homolog 2, RRM domain, GST-SBP tag (RBFOX2, Homo sapiens, UniProt O43251-10, residues 100-194)
Method: RNA Bind-n-Seq
Molecule type: RNA
Sample: in vitro
Tested at: 365 nM
Setting: natural RNA segment, single round, ends assumed
Baseline: no-protein control
Direction: higher = stronger binding
Quantity: RBNS enrichment (R)
Target sequence (chain): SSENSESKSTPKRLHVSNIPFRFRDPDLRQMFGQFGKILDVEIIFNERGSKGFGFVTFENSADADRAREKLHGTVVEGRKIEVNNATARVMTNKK
Sequence = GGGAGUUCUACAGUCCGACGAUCUGACUUCUUCCUUUCACUGCUGUUUAUAAAAUGUGUAAUGAAUUCUAACAACUCAAAUUUUGCUUUUUGAAGCUGUAUUUUUAAGUUAAGAAAAUAUAUUUUUGGUAUAAUGGAAUUCUCGGGUGCCAA; result = 1.11
Sequence = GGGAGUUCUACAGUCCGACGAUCACACCUGUGUAUGUGAAAGUCAUUUUACAUUUCCAAGCAGUCUGUUUCUUAUUUUUAUAUUUUAACUCUAUUCUUGGAUGUAUAAAGUGAACUUUUUCGCUUCUGUAAGUUGGAAUUCUCGGGUGCCAA; result = 0.369
Sequence = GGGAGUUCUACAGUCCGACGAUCUGUAGGCUUCCUUGCACAGAUGUUGCAGCCAGCCUCAGGAGUAAAGUGCCCGCUGACUGCUGCCGCCACCUCUGUCUCGCUCCCUGUCAGUGCUGCUGGCACGUGGGACGUGGAAUUCUCGGGUGCCAA; result = 0.324
Sequence = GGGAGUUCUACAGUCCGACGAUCUUAGUAACGUCUAAGGCCAUGUUGCCUUUGUCUUUAGAGUAAUUCCUGGCUGUGCCUACCACUCCUGCAUACUGUGCUUAUGUGCGUGCUGCGCUUUGAUGGGGAGGAGGUGGAAUUCUCGGGUGCCAA; result = 1.21
Sequence = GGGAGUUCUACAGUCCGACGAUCUAUUUUCGGAGCCAGUGAUGCUCUUUAAAGGAGUUAUUUCUUCCAAAGAAGCAAGACGAGCCAGGUUACUGACAUAAUCUUUAUGACAUGUGUACUGCAGUUGUGCCUUUUGGAAUUCUCGGGUGCCAA; result = 0.239
Sequence = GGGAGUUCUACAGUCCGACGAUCCUGGUCCCAACCUGCAGACCCCACAGCAGUCAGUUGGUCAGGCCCUGCUGUAGAAGGUCACUUGGCUCCAUUGCCUGCUUCCAACCAAUGGGCAGGAGAGAAGGCCUUUAUGGAAUUCUCGGGUGCCAA; result = 0.431
Sequence = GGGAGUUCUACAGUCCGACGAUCGUAAGCUCUGUUGUACAGUCUGUCCAAAUGGGUCAAGGUUGCCUUUAGAAGCAAAUAGUGUGAUUUUCAAGACUUCAAAUACAAAUUUAGUUUAAGUGUUUGAACAACUAUGGAAUUCUCGGGUGCCAA; result = 0.403
Sequence = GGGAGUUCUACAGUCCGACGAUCUGAAGGGGAUACGCUGGAGUUGCCCUGCCAUCGCCUCCAUCAGCCAGACGAGGUCCUCACAGGAGAAGGACAGCUCUUCCCCACCCUGGGAUCUCAGGAGGGCAGCCACGUGGAAUUCUCGGGUGCCAA; result = 0.404
Sequence = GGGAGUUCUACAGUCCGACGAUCAUGAAUCCUGGGACAUGCUGAUGACUGUAAACUGGCCUUUCCGAGUCAUAGAAAAAAAAAAGAUGGCCUUAUUUCUCCAGAAGUGAGUGAACCACACUUCCAGGCUAUUUUGGAAUUCUCGGGUGCCAA; result = 0.482
Sequence = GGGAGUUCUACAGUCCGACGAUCUUCACAGUUUUAAAAACUGCCAUGCAGUGAUUUCGGCACUCUGGGGCCAGACAGCAGCUCCCUGUCAGACGGCCAACAAGAGUUCUCUGGAAUGCUUGUGAGUCCGUUCCUGGAAUUCUCGGGUGCCAA; result = 0.487
Sequence = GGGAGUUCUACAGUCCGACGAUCAGAUUGUCCGUGGGAGGGCUCCAGUGUCUGGGAAGAGGGCAGGCGGCCCCCAUGAAUGUCCUCGGAAGGGGGUGGCUCCUGGUAGCAUCCUUUUCCUUCACCAUCUAUGGUGGAAUUCUCGGGUGCCAA; result = 1.21
Sequence = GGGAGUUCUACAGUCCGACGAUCAACUACAUUCCAGAUUUAAAGAAAUGAAAGGAUACCAUUAGUGUGUAUAACAGAUUAUUGUUCAUACUUGUAAAGCAUCUUAUGUCAUUGAGAAUAUAAAGAACAGUGCCUGGAAUUCUCGGGUGCCAA; result = 0.638

Series 2
Target: Histone acetyltransferase KAT6A, both winged helices, GST fusion (KAT6A, Homo sapiens, UniProt Q92794, residues 1-181)
Method: protein binding microarray
Molecule type: double-stranded DNA, one strand shown
Sample: in vitro
Tested at: not given
Setting: 8-mer, flanks averaged, mean of 2 arrays, mostly near background
Baseline: not given
Direction: higher = stronger binding
Quantity: E-score
Construct (chain): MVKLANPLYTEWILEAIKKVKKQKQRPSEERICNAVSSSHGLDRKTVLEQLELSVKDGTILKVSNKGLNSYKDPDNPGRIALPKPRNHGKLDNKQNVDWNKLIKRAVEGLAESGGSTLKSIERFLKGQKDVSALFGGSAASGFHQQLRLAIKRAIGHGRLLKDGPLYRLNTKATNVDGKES
Sequence = ATCTACCC; result = 0.015
Sequence = ACCAGCAC; result = -0.28
Sequence = CCCCTAGA; result = -0.287
Sequence = AGAATGAT; result = -0.114
Sequence = GGTTAAAC; result = 0.0834
Sequence = AATATGTC; result = -0.113
Sequence = AGGCGTTA; result = 0.016
Sequence = GTCCCACA; result = -0.00861
Sequence = ACGGGTGA; result = 0.148
Sequence = CTACTAAA; result = 0.0218
Sequence = AGGTGATG; result = -0.148
Sequence = AAAGGGCA; result = -0.127
Sequence = GACATCCA; result = -0.127
Sequence = CATTTAAC; result = -0.0567
Sequence = CCGTGGAC; result = 0.217
Sequence = CACTACTG; result = -0.14
Sequence = TATTAGGA; result = -0.146
Sequence = CTCCCATC; result = -0.169
Sequence = AGGTGCAC; result = -0.114
Sequence = AGGGCGAT; result = 0.0572

Series 3
Target: RING finger protein unkempt homolog, zinc fingers 1-6, SBP tag (UNK, Homo sapiens, UniProt Q9C0B0, residues 30-357)
Chain of UniProt Q9C0B0 (30-357, looked up): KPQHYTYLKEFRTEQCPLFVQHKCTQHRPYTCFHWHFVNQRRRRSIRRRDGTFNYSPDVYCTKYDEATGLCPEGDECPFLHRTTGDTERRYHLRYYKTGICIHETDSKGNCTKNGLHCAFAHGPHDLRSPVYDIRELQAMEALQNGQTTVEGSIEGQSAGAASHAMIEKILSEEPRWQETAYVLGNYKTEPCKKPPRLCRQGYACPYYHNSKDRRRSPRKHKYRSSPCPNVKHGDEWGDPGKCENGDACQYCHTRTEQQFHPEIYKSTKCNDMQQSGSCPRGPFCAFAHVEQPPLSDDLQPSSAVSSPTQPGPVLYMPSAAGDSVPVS
Method: RNA Bind-n-Seq
Molecule type: RNA
Sample: in vitro
Tested at: 100 nM
Setting: RNA with constant flanks, vertebrate orthologous sites, ends assumed
Baseline: input RNA pool
Direction: higher = stronger binding
Quantity: bound/input enrichment
Sequence = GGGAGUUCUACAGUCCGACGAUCUACAGCAAAAGAGCCAAGCAGUAGCAUUGUUGUUGGUUUUUUUUUUAAUGUAAAAAAAAAUAGGUCCAGACUUUGUUUCCGUAUUCAAUCUUAAAAAUAAAAAAAUACCUCAGUACUGUUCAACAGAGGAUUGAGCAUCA; result = 0.268 ratio
Sequence = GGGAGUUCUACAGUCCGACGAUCUCCUUCUAUUCAGGGUUGGGCUCAUCUGUAAAAGAUGUAAUAUUUGCAACAACUGUAUUAUAUCUAGUUAAGUUGAGUUGAAUAUUUUUUUAUUAGCCUGUAAAUAAAGAUGGCAUCUUUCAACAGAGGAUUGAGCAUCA; result = 0.27 ratio
Sequence = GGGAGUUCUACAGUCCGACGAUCGAGCUAAAGGAGUUAGCAUCUUUAUUUUUGUAUCAAAGAUAAAGGUUAUUUUGAAAUUAUUAGGAUUUUUACACAACUCUGAAAUCUGUUGCUUUUGUAAACAAAUUGUUUGAUCUUAGGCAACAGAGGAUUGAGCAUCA; result = 0.68 ratio
Sequence = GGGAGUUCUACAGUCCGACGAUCGAUAUUGAAUAGUAUUAAACAUUUUCGUCUUCCUUUAUCUUUUAUCCCCUACCUAAUAUUUAGUCUACUUUUAAAAAUUCCAGACUUCACUGCUCUUUGAACUGAUAAUUCCAGUUUUCACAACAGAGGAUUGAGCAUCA; result = 2.09 ratio
Sequence = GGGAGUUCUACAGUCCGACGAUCAAUUACACUAAUACUGAAGUUAAAAUGAAAAGGAUAUCCAAGGUGAUGAUAAAGUGUGUGUUGGUAGUUACUAAAAAAAAACCUUAGCUGUUAUUGCCUUGUAUUUCUAUCCCUUGUUUCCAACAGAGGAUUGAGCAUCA; result = 0.475 ratio
Sequence = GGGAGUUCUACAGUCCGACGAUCCUAUUAAUGCACUGUAUUCCAGGCAUCGUCUGAAUUUUAGUGUAAUCUAGGAGAUUUUUAUAAUUUUAUUUUAAUGAAGUAUGGAUUGAUGCAGAGUUGUUAGCAGUCUGUAGUCUUUUACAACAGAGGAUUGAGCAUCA; result = 0.646 ratio
Sequence = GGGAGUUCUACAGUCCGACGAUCGGGAAAUAUUGAAUAGUAUUCAGCAUUUUUGUCUUCCUUUAUUUUUUCUCUCUGAAUACCUGGUGUACUUUUUAAAAUUUCAGACUUCACUGCUAUCUGAAUUGACUAUUUCAAUUUUCACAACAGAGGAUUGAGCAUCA; result = 0.422 ratio
Sequence = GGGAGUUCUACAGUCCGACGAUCAGAAAAUUUUAACCAUGAAUCUGAAGGUAGAAAUACAGGUCCGUGGUUAUCUUCCUCACUUAGAAAUAGAUGCACACCUUUGUUCUCUAGAAGGAGAAGAGAGGGAAGAGAUGAAUCUUCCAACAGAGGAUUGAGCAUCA; result = 0.96 ratio
Sequence = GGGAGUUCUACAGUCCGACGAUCAGCAACCCAAGGAUUCAGGACUGGUUUCACAAAUAUCCCAAGCAGAUGUGGAACUAACAGUAGAAUUGGACAACCAAGACCAUGAUGUACUAUAAUUUAAUUUAUUUUUAUGAGGAAUAUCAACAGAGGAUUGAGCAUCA; result = 0.56 ratio
Sequence = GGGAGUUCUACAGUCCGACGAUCCCGAAAGGCCAAAUUCCCUCCUCCCUUCUACUGCUUCUACCAACUGGAAGCACAGAAAACUAGAAUUACAUUUAUUUUGUUUUUUAAAAAUAUACGUUGAUUUCUUGUAACAUUCAGUAGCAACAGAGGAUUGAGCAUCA; result = 0.808 ratio
Sequence = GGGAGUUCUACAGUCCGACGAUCUUUUUUUUUUUUUGCACAUGACAGUGUUUGUACUGAUCUGCUGAGGAGGAGGAGGGGUACCAAACAGUGGGCCUGGAUUCCUAACCUCCAGUGUCUCACCACCCACCUGGCUUCUUUGUCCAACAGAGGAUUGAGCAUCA; result = 0.357 ratio

Series 4
Target: Sal-like protein 4, full length isoform A (SALL4, Homo sapiens, UniProt Q9UJQ4, residues 1-1053)
Chain of UniProt Q9UJQ4 (whole entry, looked up): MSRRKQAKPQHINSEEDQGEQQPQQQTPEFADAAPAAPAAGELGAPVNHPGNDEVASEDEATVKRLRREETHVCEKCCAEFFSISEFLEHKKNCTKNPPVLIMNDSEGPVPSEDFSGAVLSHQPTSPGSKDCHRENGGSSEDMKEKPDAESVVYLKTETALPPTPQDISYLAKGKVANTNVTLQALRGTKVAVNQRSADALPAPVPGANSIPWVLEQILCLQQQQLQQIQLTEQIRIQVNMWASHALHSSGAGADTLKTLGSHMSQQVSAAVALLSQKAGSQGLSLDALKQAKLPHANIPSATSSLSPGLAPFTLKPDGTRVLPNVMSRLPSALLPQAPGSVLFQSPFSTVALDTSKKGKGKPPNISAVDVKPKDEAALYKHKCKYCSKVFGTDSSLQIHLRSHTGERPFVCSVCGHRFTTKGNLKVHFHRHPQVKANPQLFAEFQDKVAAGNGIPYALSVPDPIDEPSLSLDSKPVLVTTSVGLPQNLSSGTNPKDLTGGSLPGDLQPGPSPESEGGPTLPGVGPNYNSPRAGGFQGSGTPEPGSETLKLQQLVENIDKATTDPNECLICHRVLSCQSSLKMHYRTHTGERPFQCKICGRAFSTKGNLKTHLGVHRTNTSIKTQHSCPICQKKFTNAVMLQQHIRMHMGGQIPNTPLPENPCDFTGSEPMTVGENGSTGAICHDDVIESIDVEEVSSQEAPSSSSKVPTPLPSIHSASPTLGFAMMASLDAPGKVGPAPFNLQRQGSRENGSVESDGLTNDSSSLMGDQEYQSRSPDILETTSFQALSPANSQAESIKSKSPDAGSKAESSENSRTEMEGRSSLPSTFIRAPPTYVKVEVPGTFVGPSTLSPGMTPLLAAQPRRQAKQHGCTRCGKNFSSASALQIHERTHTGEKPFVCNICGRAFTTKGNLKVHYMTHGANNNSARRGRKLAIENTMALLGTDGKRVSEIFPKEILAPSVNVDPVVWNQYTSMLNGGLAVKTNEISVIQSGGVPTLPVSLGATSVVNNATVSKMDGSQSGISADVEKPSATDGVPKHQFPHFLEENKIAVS
Method: universal PBM
Molecule type: double-stranded DNA, one strand shown
Sample: in vitro
Tested at: 600 nM
Setting: 8-mer, flanks averaged, mean of replicates
Direction: higher = stronger binding
Quantity: E-score
Sequence = GGAGGCAC; result = -0.256
Sequence = CACTCAGC; result = -0.22
Sequence = CCGGGTTC; result = -0.364
Sequence = GACGACAC; result = -0.115
Sequence = AGCTCGAT; result = -0.0126
Sequence = CACAATGG; result = 0.0528
Sequence = GATAGTGA; result = 0.161
Sequence = AGTTGAGC; result = -0.197
Sequence = CAGTCGGC; result = -0.319
Sequence = GCACTGCA; result = -0.24
Sequence = AGCTCTCG; result = -0.149
Sequence = AAGTCATA; result = 0.319
Sequence = GGGTGTGA; result = -0.129
Sequence = AGTTTCGG; result = -0.101
Sequence = CGCCATTA; result = -0.103
Sequence = ATGATGCC; result = 0.0771
Sequence = CTGGTCGC; result = -0.185
Sequence = CAGACTGG; result = -0.179
Sequence = AACAGTAA; result = 0.194
Sequence = ACAAGCAG; result = 0.0154
Sequence = AGATGATA; result = 0.228
Sequence = AGCACTAA; result = 0.109
Sequence = GGAACGCC; result = -0.264
Sequence = TGGTGGAA; result = -0.0595
Sequence = CTCTTGCC; result = -0.105

A few entries again (series 2):
Sequence = AGGTGCAC; result = -0.114
Sequence = AGGTGATG; result = -0.148
Sequence = AGAATGAT; result = -0.114
Sequence = AAAGGGCA; result = -0.127
Sequence = CACTACTG; result = -0.14
Sequence = AATATGTC; result = -0.113
Sequence = CTACTAAA; result = 0.0218
Sequence = GTCCCACA; result = -0.00861
